Experimental data from different studies.
Numbered parts are unrelated; each lists some results of a single study.
UniProt Q8LAL2, sequence (whole entry, looked up): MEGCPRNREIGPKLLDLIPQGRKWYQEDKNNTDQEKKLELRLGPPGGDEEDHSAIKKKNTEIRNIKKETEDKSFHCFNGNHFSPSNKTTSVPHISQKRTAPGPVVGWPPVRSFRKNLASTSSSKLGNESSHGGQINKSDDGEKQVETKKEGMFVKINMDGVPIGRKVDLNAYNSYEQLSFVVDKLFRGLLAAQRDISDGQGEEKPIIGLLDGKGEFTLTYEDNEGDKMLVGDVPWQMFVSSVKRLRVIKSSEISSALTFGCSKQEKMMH
UniProt Q9XED8, sequence (whole entry, looked up): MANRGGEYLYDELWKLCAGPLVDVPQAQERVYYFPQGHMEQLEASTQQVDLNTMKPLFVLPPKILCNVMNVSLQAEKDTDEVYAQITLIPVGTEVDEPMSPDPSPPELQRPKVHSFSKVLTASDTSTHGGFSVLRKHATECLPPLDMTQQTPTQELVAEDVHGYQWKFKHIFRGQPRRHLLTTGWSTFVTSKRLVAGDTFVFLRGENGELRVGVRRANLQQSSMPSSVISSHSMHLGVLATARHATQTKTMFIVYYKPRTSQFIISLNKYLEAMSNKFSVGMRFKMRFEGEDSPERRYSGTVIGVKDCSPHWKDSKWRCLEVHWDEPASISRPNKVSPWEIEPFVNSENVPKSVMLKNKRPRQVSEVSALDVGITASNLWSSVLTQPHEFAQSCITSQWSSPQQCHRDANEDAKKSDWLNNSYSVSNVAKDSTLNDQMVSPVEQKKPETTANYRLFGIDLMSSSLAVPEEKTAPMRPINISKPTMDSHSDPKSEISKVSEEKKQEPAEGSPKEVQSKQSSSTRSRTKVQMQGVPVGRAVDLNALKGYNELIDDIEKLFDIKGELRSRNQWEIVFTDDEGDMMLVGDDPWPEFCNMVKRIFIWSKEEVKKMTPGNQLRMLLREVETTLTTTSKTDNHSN
UniProt P37023, sequence (whole entry, looked up): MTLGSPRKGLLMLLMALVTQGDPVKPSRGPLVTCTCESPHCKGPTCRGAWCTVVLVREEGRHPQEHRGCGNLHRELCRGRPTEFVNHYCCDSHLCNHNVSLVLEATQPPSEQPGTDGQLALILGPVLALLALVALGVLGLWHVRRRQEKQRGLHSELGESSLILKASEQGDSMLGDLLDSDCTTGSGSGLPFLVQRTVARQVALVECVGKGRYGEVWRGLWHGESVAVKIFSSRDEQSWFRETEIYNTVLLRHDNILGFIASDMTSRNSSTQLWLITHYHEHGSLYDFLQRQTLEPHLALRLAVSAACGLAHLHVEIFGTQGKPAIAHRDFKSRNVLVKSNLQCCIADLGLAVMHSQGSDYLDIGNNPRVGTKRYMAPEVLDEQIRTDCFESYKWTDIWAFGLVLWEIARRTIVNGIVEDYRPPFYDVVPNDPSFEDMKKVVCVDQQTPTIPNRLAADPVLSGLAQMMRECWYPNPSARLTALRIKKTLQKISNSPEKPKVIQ
UniProt P00519, sequence (whole entry, unmodified, looked up): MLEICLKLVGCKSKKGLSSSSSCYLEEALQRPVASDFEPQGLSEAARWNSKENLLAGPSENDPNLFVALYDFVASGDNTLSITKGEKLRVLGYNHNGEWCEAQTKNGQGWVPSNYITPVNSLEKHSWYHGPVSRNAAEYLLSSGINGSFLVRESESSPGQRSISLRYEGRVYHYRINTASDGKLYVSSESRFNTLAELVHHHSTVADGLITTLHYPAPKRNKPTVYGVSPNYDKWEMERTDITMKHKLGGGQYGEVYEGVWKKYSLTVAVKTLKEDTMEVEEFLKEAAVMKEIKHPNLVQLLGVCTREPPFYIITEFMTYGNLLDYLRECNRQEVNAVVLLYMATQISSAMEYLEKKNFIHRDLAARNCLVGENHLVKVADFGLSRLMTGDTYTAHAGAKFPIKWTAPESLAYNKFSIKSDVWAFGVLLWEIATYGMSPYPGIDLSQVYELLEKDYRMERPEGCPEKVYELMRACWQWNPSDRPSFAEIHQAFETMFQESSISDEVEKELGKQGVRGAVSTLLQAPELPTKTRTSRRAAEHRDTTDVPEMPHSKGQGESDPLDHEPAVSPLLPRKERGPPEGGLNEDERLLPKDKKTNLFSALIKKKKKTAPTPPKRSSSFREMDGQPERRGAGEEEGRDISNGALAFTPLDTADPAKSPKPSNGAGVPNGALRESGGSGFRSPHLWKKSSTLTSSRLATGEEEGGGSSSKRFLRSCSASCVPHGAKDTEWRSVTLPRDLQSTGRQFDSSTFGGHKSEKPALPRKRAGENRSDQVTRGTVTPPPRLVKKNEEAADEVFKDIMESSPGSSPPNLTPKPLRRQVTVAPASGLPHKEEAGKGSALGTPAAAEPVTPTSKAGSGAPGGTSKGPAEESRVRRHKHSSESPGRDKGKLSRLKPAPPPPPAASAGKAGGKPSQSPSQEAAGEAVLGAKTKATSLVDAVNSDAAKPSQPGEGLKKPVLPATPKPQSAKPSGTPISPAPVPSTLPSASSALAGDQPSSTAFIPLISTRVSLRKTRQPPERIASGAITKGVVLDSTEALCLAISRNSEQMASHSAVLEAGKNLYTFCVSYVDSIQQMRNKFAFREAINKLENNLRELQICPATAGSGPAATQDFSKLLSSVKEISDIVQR
UniProt Q9C5X0, sequence (whole entry, looked up): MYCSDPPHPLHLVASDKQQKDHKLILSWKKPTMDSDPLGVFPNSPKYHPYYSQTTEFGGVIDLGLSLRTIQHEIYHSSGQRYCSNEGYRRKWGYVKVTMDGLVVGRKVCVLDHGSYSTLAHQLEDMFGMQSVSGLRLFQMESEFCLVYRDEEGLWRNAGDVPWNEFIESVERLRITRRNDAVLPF
UniProt Q38832, sequence (whole entry, looked up): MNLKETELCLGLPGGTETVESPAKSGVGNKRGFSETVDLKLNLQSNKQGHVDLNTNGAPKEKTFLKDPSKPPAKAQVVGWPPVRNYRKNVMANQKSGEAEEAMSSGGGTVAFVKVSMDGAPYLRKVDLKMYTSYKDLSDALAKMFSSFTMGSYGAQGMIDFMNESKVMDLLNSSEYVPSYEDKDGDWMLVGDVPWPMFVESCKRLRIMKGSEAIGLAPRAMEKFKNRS
UniProt O24410, sequence (whole entry, looked up): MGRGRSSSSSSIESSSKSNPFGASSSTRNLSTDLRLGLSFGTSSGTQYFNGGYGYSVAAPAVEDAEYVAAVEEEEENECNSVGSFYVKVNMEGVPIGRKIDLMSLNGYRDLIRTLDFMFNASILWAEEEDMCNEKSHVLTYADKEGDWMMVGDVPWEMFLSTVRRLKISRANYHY
UniProt O24408, sequence (whole entry, looked up): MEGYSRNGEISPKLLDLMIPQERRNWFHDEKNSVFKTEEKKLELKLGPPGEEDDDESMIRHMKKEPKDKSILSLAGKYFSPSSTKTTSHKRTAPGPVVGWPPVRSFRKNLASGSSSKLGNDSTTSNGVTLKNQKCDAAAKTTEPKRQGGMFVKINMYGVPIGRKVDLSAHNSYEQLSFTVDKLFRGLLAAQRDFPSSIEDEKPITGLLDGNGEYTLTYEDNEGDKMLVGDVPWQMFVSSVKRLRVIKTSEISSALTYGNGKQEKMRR
UniProt Q38827, sequence (whole entry, looked up): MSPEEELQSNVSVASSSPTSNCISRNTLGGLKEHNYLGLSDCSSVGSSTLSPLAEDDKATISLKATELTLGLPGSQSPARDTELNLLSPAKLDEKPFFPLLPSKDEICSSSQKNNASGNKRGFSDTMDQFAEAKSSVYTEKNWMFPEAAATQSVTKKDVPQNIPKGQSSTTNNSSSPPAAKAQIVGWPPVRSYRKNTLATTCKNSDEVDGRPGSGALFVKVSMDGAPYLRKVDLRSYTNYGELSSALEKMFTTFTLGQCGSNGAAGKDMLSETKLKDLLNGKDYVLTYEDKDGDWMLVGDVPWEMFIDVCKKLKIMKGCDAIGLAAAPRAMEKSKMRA
UniProt Q38828, sequence (whole entry, looked up): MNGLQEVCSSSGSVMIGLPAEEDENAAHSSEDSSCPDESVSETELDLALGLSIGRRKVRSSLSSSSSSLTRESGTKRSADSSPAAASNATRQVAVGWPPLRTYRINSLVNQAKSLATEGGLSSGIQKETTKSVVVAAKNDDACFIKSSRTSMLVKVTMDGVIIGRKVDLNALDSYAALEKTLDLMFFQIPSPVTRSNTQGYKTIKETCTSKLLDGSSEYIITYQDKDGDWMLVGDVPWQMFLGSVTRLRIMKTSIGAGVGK
UniProt P45983, sequence (whole entry, looked up): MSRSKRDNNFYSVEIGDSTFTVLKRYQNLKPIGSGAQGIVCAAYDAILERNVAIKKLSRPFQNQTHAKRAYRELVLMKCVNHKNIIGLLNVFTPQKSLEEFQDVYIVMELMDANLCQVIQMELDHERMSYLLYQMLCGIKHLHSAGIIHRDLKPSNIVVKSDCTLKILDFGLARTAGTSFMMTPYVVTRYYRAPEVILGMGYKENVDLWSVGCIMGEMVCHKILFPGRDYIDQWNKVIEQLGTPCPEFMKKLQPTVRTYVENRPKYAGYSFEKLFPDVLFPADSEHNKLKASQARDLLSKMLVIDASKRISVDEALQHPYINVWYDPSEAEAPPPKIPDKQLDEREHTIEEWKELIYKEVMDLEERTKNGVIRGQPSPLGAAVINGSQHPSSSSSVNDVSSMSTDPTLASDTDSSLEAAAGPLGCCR

Sample 1 — technique: protein-binding microarray; form: double-stranded DNA, one strand shown; matrix: in vitro; concentration: not given; direction: higher = stronger binding
Target: Microphthalmia-associated transcription factor, full length (MITF, Homo sapiens, UniProt O75030-10, residues 1-413)
Notes: k-mer, scored over probes, only values ≥0.25
`ACGTGGA` has an E-score of 0.255.
`CATGACC` gave an E-score of 0.417.
For `ACCCCGT`, the E-score was 0.295.
The E-score of `GTCACGA` is reported as 0.449.
`ACGTGCT` has an E-score of 0.342.
For `GATGACC`, the E-score was 0.269.
For `ACGTGAG`, the E-score was 0.331.
`GTATGAC` has an E-score of 0.272.

Sample 2 — technique: protein-binding microarray; form: double-stranded DNA, one strand shown; matrix: in vitro; concentration: 2540 nM top; notes: 60-bp whole probe; added: salmon DNA 0.4 mg/ml; baseline: random background probes; direction: higher = stronger binding; all sequences stand within: GCCTAGCAC … GTCTTGATTCGCTTGACGCTGCTG
Target: Interferon regulatory factor 3, full length, phosphomimetic (IRF3, Homo sapiens, UniProt Q14653, residues 1-427, S386D/S396D/S398D/S402D/T404D/S405D)
Construct (chain): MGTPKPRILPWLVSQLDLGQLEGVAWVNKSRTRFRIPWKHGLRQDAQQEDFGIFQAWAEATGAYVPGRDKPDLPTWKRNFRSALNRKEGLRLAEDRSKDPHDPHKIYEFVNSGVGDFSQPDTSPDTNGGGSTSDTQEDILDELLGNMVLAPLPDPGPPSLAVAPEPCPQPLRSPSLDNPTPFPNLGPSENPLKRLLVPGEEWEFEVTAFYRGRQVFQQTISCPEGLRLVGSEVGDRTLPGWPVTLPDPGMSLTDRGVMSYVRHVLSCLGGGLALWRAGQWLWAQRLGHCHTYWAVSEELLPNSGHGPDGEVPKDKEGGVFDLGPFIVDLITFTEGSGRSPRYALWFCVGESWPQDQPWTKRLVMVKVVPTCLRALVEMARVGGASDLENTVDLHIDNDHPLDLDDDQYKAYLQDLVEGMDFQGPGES
Under “fitted relative affinity”, `GACGTTCTCAGTATCGAGACGTGCTAG` is recorded as 1.51 z-score.
`TTAGATATCAGTCTCGAGTAGTGCTAG`: “fitted relative affinity” 0.833 z-score.
Under “fitted relative affinity”, `TCATACATGTGTTTAAGACTGTGCTAG` is recorded as 0.0813 z-score.
`GACGGACTGGACACTGGGAACGTGCTA` — result for “fitted relative affinity”: -0.68 z-score.
Under “fitted relative affinity”, `TTAGGTCCCGGTCTCGGTTAGTGCTAG` is recorded as 0.629 z-score.
For `GACGGACTGGGTTTCGGGATGTGCTAG`, “fitted relative affinity” read 1.4 z-score.
Under “fitted relative affinity”, `TCAACTTTAACTTATTCTACTGTGCTA` is recorded as 0.309 z-score.
Under “fitted relative affinity”, `GACGGACTTCTTATCCTGACGTGCTAG` is recorded as 0.167 z-score.

Sample 3 — technique: competition with immobilised ligand; concentration: 1 µM
SMILES: COc1cc(-c2cn(C3CCc4ccccc4N(CC(F)(F)F)C3=O)nn2)ccc1-n1ccc(C)n1 (stereo not shown)
It gave 55% for remaining binding (MAPK8 (Homo sapiens, UniProt P45983); cell-free assay).
For Tyrosine-protein kinase ABL1, non-phosphorylated (ABL1, Homo sapiens, UniProt P00519, F317I); binding: remaining binding read 65%.
For IKBKB (Homo sapiens, UniProt O14920); cell-free assay: remaining binding read 99%.
For ACVRL1 (Homo sapiens, UniProt P37023); binding: remaining binding read 100%.

Sample 4 — technique: two-hybrid; direction: higher = firmer interaction
Molecule: IAA7 (Arabidopsis thaliana, UniProt Q38825)
UniProt Q38825, sequence (whole entry, looked up): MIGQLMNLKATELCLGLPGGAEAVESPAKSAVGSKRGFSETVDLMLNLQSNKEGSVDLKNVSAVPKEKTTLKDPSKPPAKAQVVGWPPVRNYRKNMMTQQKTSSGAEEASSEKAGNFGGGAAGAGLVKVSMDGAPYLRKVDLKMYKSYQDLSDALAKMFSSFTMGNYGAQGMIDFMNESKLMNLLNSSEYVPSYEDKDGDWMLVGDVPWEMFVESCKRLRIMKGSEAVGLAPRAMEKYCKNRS
The positive tests was 0 (ARF9 519-638 (Arabidopsis thaliana, UniProt Q9XED8); weak activation fusion; baseline: out of 2 tests).
IAA10 (Arabidopsis thaliana, UniProt Q38828); baseline: out of 4 tests — positive tests: 3.
The positive tests was 2 (IAA20 (Arabidopsis thaliana, UniProt O24410); weak activation fusion; baseline: out of 4 tests).
IAA18 (Arabidopsis thaliana, UniProt O24408); baseline: out of 4 tests — positive tests: 3.
It gave 0 for positive tests (IAA14 (Arabidopsis thaliana, UniProt Q38832); baseline: out of 4 tests).
The positive tests was 0 (IAA9 (Arabidopsis thaliana, UniProt Q38827); baseline: out of 2 tests).
IAA26 (Arabidopsis thaliana, UniProt Q8LAL2); baseline: out of 4 tests — positive tests: 0.
It gave 4 for positive tests (IAA34 (Arabidopsis thaliana, UniProt Q9C5X0); baseline: out of 4 tests).

Repeated from above (sample 2):
Under “fitted relative affinity”, `TCATACATGTGTTTAAGACTGTGCTAG` is recorded as 0.0813 z-score.
`GACGGACTGGACACTGGGAACGTGCTA` — result for “fitted relative affinity”: -0.68 z-score.
